Results from different studies.
Parts stem from different laboratories: compare values within a part only. Positions count from the first letter of the parent shown.

Sample 1
Target: Prothrombin, mature alpha-thrombin (F2, Homo sapiens, UniProt P00734)
Technique: aptamer microarray, sandwich
Form: DNA with 2'F-ANA
Sample: in vitro
Concentration: 200 nM
Notes: whole 15-mer aptamer, many near background
Added: Cy3 exosite-II aptamer, 400 nM
Reading: higher = stronger binding
Sequence: GGTTGGTGTGGTTGG
For `2'F-ANA at 3 4 7 10 11 12 13 15`, “mean fluorescence intensity” read 252 a.u.
`2'F-ANA at 2 6 7 9 12`: “mean fluorescence intensity” 635 a.u.
For `2'F-ANA at 1 3 5 6 7 8 10 13 14`, “mean fluorescence intensity” read 51.2 a.u.
For `2'F-ANA at 5 6 7 10 13`, “mean fluorescence intensity” read 60.2 a.u.
`2'F-ANA at 1 2 3 4 6 8 11 12 13 14` — result for “mean fluorescence intensity”: 78.3 a.u.
For `2'F-ANA at 1 4 9 10 11 12 15`, “mean fluorescence intensity” read 59.4 a.u.
Under “mean fluorescence intensity”, `2'F-ANA at 3 4 5 6 13 14` is recorded as 55.8 a.u.
`2'F-ANA at 2 4 5 9 15` — result for “mean fluorescence intensity”: 68.5 a.u.

Sample 2
Target: UDP-N-acetylglucosamine--peptide N-acetylglucosaminyltransferase 110 kDa subunit (OGT, Homo sapiens, UniProt O15294)
UniProt O15294, sequence (whole entry, looked up): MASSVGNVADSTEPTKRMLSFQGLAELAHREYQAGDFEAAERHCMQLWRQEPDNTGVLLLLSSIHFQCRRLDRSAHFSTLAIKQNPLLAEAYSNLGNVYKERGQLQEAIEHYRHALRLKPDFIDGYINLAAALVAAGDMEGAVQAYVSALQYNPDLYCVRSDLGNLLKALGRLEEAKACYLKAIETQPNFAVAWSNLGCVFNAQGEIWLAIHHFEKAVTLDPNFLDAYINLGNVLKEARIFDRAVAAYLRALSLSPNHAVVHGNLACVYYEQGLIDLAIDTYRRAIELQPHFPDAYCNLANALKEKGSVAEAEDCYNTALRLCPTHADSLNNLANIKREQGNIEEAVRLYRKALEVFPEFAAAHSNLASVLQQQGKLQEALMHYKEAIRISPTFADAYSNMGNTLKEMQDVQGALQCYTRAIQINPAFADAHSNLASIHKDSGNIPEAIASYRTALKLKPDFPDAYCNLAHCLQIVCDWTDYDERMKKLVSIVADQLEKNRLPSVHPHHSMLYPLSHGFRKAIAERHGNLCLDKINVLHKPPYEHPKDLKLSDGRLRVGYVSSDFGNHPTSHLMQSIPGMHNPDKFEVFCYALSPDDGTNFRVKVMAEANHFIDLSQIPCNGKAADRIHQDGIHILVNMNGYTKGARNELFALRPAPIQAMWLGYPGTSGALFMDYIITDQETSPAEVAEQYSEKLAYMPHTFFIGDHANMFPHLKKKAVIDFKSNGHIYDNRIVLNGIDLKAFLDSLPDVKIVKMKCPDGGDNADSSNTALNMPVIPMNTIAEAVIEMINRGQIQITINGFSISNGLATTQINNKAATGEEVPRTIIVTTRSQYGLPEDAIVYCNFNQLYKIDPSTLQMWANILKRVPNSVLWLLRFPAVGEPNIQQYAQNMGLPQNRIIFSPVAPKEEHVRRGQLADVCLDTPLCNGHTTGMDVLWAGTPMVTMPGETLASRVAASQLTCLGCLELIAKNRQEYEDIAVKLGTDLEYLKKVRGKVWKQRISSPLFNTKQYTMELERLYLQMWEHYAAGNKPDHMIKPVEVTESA
Read-out: binding
Technique: phage display NGS
Form: peptide
Concentration: concentration not given
Notes: normalized abundance
Baseline: input library
`DHSLPTTHIHTHHDI`: “enrichment fold change” 5.92.
`HWTSMAFMHHWEPE`: “enrichment fold change” 6.31.
Under “enrichment fold change”, `AFVPPWAPMYQIVMG` is recorded as 8.47.
`TWRVHYPFHTHNYEI`: “enrichment fold change” 13.
`SAERHMHWPWNHRHS` — result for “enrichment fold change”: 6.56.

Sample 3
Target: CCND2, cyclin fold, Cln2 fusion (human)
Technique: yeast growth competition, sequencing
Sample: yeast
Notes: weak parent motif
Baseline: not given
Reading: higher = stronger binding
Parent: viral docking peptide; KGVKRKLFAEDSS; partner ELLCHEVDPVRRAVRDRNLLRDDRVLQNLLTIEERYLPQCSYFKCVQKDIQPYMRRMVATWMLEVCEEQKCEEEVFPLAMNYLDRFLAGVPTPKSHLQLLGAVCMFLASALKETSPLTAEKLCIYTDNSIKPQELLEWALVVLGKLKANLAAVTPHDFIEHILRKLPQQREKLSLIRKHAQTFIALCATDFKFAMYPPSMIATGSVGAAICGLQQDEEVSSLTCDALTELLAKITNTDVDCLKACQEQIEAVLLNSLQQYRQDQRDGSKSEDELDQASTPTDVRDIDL
`K6T` — result for “normalised enrichment score”: 0.219.
`V3I`: “normalised enrichment score” 0.152.
For `F8K`, “normalised enrichment score” read 0.17.
`F8P`: “normalised enrichment score” 0.101.
For `R5A`, “normalised enrichment score” read 0.109.
`V3P` — result for “normalised enrichment score”: 0.327.
For `F8E`, “normalised enrichment score” read 0.411.
Under “normalised enrichment score”, `S12M` is recorded as 0.141.
`E10N` — result for “normalised enrichment score”: -0.471.
`E10L`: “normalised enrichment score” 0.00779.
`S12N` — result for “normalised enrichment score”: 0.0538.
Under “normalised enrichment score”, `G2H` is recorded as 0.321.
For `A9L`, “normalised enrichment score” read 0.0415.
`V3D` — result for “normalised enrichment score”: -0.351.
`G2Y` — result for “normalised enrichment score”: 0.0835.
Under “normalised enrichment score”, `R5Y` is recorded as -0.0898.
For `D11G`, “normalised enrichment score” read 0.264.
For `L7M`, “normalised enrichment score” read 0.202.
`S12F`: “normalised enrichment score” 0.0696.

Sample 4
Target: ABI1, truncated, D143A, DHFR fusion (Arabidopsis thaliana, UniProt P49597)
Technique: DHFR PCA, dose-response
Sample: yeast
Notes: Hill fit, not affinity, not high confidence
Added: (+)-ABA, dose series
Reading: lower = more sensitive
Parent: PYL1, truncated, DHFR fusion (Arabidopsis thaliana, UniProt Q8VZS8); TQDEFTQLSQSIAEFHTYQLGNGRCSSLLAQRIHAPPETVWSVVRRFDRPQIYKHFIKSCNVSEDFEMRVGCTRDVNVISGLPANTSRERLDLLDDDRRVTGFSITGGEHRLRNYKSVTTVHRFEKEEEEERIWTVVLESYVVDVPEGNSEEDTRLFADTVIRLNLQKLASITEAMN
The ABA EC50 of `Q2H` is reported as 2.15 µM.
The ABA EC50 of `R45P` is reported as 2.61 µM.
With `W41R` the ABA EC50 was 27.1 µM.
`I105D` has an ABA EC50 of 10.8 µM.
For `D159V`, the ABA EC50 was 2470 µM.
The ABA EC50 of `F103N` is reported as 0.169 µM.
`G81L` has an ABA EC50 of 792 µM.
`V121F` has an ABA EC50 of 2070 µM.

Some of these lines once more (sample 3):
`V3D` — result for “normalised enrichment score”: -0.351.
`G2Y` — result for “normalised enrichment score”: 0.0835.
Under “normalised enrichment score”, `R5Y` is recorded as -0.0898.
For `D11G`, “normalised enrichment score” read 0.264.
For `L7M`, “normalised enrichment score” read 0.202.
